Experimental data gathered from unrelated publications.
Every numbered part comes from another study and shows a few of its results, in no order. Changes are numbered by the printed parent chain.

Series 1 — method: protein binding microarray; molecule type: double-stranded DNA, one strand shown; medium: in vitro; concentration: not given; baseline: not given; reading: higher = stronger binding; quantity: E-score
Target: Histone acetyltransferase KAT6A, winged helix 2, GST fusion (KAT6A, Homo sapiens, UniProt Q92794, residues 85-181)
Notes: 8-mer, flanks averaged, mean of 2 arrays, mostly near background
Target sequence (chain): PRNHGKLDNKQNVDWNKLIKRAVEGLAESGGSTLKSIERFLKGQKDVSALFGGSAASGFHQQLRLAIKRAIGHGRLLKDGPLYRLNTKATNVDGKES
ACGGATAG: 0.0413
AAAATTCA: 0.198
GCCAGCAA: 0.113
TCCGGAAA: 0.0363
AGTAAATC: 0.0685
CCCACGAC: 0.172
AGCCTCCC: 0.00394
TAACGGGA: -0.0886

Series 2 — method: DHFR PCA, deep sequencing; medium: yeast; together with: (+)-ABA 4.8 µM; baseline: wild-type fitted maximum; reading: higher = stronger binding; quantity: relative binding score
Target: ABI1, truncated, D143A, DHFR fusion (Arabidopsis thaliana)
Notes: methotrexate growth selection, single substitutions
Parent: PYL1, truncated, DHFR fusion (Arabidopsis thaliana); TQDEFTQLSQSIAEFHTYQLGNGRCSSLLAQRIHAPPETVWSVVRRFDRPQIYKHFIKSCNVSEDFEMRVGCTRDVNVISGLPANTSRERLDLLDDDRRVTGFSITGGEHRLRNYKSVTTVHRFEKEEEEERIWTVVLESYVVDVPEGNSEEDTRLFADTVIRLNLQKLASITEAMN
I79W: 60.5%
S140R: 4.77%
C25W: -10.5%
R46G: 14.4%
R132T: 93.6%
G107R: 6.13%
R99N: 28.3%
E89F: -2.57%

Series 3 — target: CCNA1, cyclin fold, Cln2 fusion (human); method: yeast growth competition, sequencing; medium: yeast; notes: weak parent motif; baseline: not given; reading: higher = stronger binding; quantity: normalised enrichment score
Parent: SCAPER docking peptide (human); SNARRSLNFGGST; partner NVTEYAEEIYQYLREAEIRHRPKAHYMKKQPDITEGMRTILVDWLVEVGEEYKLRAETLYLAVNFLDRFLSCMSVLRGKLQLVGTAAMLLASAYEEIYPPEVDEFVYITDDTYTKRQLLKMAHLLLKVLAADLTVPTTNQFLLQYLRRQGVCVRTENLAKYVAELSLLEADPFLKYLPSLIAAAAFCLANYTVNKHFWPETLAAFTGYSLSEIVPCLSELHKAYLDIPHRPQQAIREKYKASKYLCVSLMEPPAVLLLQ
N8W: 0.542
A3R: 0.107
S6C: 0.747
T13G: 0.704
S1V: 0.85
S12C: 0.526

Single results of other studies
PhoQ, residues 284 288 289 292 302 303 SNGLAW
fold induction (PhoP, residues 12 14 15 18 19 NQGLL (Escherichia coli, UniProt P23836); Sort-seq, item: YFP reporter; E. coli; PhoQ-PhoP variant library, together with: 10 µM Mg2+; baseline: high Mg2+ state, higher = stronger signaling): 5.51

Some of these lines once more (series 2):
R132T: 93.6%
R99N: 28.3%
